Published values from different studies.
Lines come from different studies, so protocols differ. ± gives the spread as reported.
CNR1: Cannabinoid receptor 1 (CNR1, Homo sapiens, UniProt P21554)
UniProt P21554, sequence (whole entry, unmodified, looked up): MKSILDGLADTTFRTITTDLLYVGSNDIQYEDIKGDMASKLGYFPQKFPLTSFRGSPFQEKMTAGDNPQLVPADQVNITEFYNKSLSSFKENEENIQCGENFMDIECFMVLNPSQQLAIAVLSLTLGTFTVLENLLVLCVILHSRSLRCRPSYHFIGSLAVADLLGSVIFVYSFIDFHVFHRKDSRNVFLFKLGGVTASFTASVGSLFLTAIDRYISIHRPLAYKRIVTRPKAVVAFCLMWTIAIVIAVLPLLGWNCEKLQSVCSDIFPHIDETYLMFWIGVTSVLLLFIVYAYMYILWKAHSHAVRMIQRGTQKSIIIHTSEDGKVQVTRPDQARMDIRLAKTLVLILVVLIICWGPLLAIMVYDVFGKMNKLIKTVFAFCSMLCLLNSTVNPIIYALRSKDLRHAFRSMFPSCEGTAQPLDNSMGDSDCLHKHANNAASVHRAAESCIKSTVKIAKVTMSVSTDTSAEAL

| SMILES | target | assay | test system | conditions | how to read | measurement | result |
| --- | --- | --- | --- | --- | --- | --- | --- |
| CN1CCN(c2cc(-c3ccncc3)c(-c3ccc4ccccc4c3)nn2)CC1 | CNR1 | agonist, FLIPR |  | 12.5 µM |  | activation | -3.8% |
| COC(=O)[C@@H](NC(=O)c1nn(Cc2ccc(F)cc2)c2ccccc12)C(C)(C)C | Cannabinoid receptor 1, with Gz (CNR1, Homo sapiens, UniProt P21554) | GTP turnover, agonist, refers to: Gz Gα subtype |  |  |  | maximal efficacy | 110% |
| C[C@H]1COCCN1c1nc(NCc2cccnc2C(F)(F)F)c2cccnc2n1 | CNR1 | binding |  | CEREP panel |  | IC50 | > 100 µM |
| CCCCCc1ccccc1C/C=C\C/C=C\C/C=C\CCCC(=O)N[C@H](C)CO | CNR1 | cAMP, agonist |  | 10 µM, highest concentration tested |  | Emax | 70% |
| CCC(CC)(NC(=O)c1ccc(C2CC2)c(Cc2ccc(F)cc2)n1)C(=O)NCCOCCOCCNC(=O)c1ccc2c(c1)C(=O)OC21c2ccc(N)c(S(=O)(=O)O)c2Oc2c1ccc(N)c2S(=O)(=O)O | CNR1 | binding | CHO membranes | 10 µM, added: [3H]CP55940 |  | displacement | 36 ± 6% |
| CCCCCc1ccccc1C/C=C\C/C=C\C/C=C\CCCC(=O)OC(CO)CO | CNR1 | cAMP, agonist |  | 10 µM, highest concentration tested |  | Emax | 11% |
| CC/C(=C(\c1ccccc1)c1ccc(OCCN(C)C)cc1)c1ccccc1 | CNR1 | refers to: cAMP | CHO-hCB1 cells | 10 µM | reference: basal | adenylyl cyclase activity increase | 2% |
| CCCCCCC(C)(C)c1ccc([C@@H]2C[C@H](O)CC[C@H]2CCCO)c(O)c1 | CNR1 (Homo sapiens, UniProt P21554, F177A) | Gαi1 engagement, agonist, BRET |  | TM2 mutant F177A | reference: wild type receptor | Emax | 18 ± 4.7% |
| CCCCCCC(C)(C)c1ccc(C2CC(O)CCC2CCCO)c(O)c1 (stereo not shown) | CNR1 | forskolin-stimulated adenylyl cyclase, agonist | CHO cells | 1 µM |  | inhibition | 79% |
| CCCCCCC(C)(C)c1ccc([C@@H]2C[C@H](O)CC[C@H]2CCCO)c(O)c1 | CNR1 | β-arrestin-1 recruitment, agonist |  |  | reference: MDMB-FUBINACA | Emax | < 20% |
| C=C1CC/C=C(\C)CC[C@@H]2[C@@H]1CC2(C)C | CNR1 | [3H]CP55,940 binding, radioligand displacement |  | 31.6 µM, added: 0.5 mg/mL BSA |  | inhibition | < 25% |
| CCCCC/C=C\[C@H](C)/C=C\C/C=C\Cc1ccccc1CCCC(=O)N[C@H](C)CO | CNR1 | cAMP, agonist |  | 10 µM, highest concentration tested |  | Emax | 57% |
| O=C(O)c1cn(Cc2ccc(F)cc2)c2ccccc12 | CNR1 | agonist, GTPγS binding |  | concentration not given |  | activity | inactive |

For quick reference, copied from above:
| SMILES | target | assay | test system | conditions | how to read | measurement | result |
| --- | --- | --- | --- | --- | --- | --- | --- |
| CCCCCCC(C)(C)c1ccc([C@@H]2C[C@H](O)CC[C@H]2CCCO)c(O)c1 | CNR1 | β-arrestin-1 recruitment, agonist |  |  | reference: MDMB-FUBINACA | Emax | < 20% |
